{"data": "Published values of several laboratories", "note": "Protocols differ between the studies behind these lines. Values joined by “and” are separate records of one study, mostly repeats; a detail may differ. Numbers after ± are the reported error."}
{"SMILES": "CCCC(=O)OCCSCCC(=O)N[C@H](CCN)C(=O)N[C@@H](CCN)C(=O)N[C@@H](CCN)C(=O)N[C@@H](CC(C)C)C(=O)N[C@H](Cc1ccccc1)C(=O)N[C@@H](CCN)C(=O)N[C@@H](CCN)C(=O)N[C@@H](CC(C)C)C(N)=O", "tested on": "Acinetobacter calcoaceticus", "assay": "BHI agar spot plating", "conditions": "24 h, 37 °C", "quantity": "MBC", "value": "> 128 µM"}
{"SMILES": "CN1CCN(c2cccc(-c3ccc4ncnc(Nc5ccc(OCc6cccc(F)c6)c(Cl)c5)c4c3)c2)CC1", "tested on": "Trypanosoma cruzi", "assay": "intracellular amastigote growth, β-galactosidase CPRG", "test system": "3T3, Tulahuen, β-galactosidase-expressing", "conditions": "10 µM, 96 h", "quantity": "inhibition", "value": "72%"}
{"SMILES": "CC(=O)O[C@@H]1C[C@@H](C)O[C@H]2O[C@@H]3C[C@@H]4CC[C@@H]5[C@H](CC[C@]6(C)[C@@H](C7=CC(=O)OC7)CC[C@]56O)[C@@]4(C)C[C@H]3O[C@]21O", "tested on": "Schistosoma mansoni", "assay": "viability, microscopic viability score", "test system": "adult worms", "conditions": "72 h", "quantity": "IC50", "value": "280 nM and 140 nM"}
{"SMILES": "Cc1cc(C(=O)Nc2nc3cccc(C)c3n2[C@H]2CCCCN(C(=O)/C=C/CN(C)C)C2)ccn1", "tested on": "Trypanosoma brucei", "assay": "propidium iodide flow cytometry", "test system": "bloodstream form", "conditions": "concentration not given, 3 h", "quantity": "multinucleated cells", "value": "6.75%"}
{"SMILES": "CCOC(=O)C1(Cc2ccccc2C#N)Oc2cc(F)ccc2N(Cc2ccccc2C#N)C1=O (stereo not drawn)", "tested on": "Setaria viridis", "assay": "fresh weight, greenhouse postemergence", "conditions": "postemergence, 150 g ai/ha, 21 days", "quantity": "inhibition", "value": "46.39 ± 0.42%"}
{"SMILES": "CCN(CC)CCO.O=C(O)C(Cl)Cl", "tested on": "Chenopodium album", "assay": "herbicidal activity", "conditions": "15 mg/mL, 21 days, post-emergence greenhouse", "quantity": "inhibition", "value": "43%"}
{"SMILES": "O=C1NC2(CC2)COc2ncc(F)cc2[C@H]2COCCN2c2ccn3ncc1c3n2", "test system": "Sprague-Dawley rat, male, testes", "conditions": "oral, 5 mg/kg/day, 4 weeks, end of treatment", "quantity": "organ-to-body weight ratio", "value": "0.757 ± 0.061%"}
{"SMILES": "CC(=O)CCC1C(=O)NC(C(C)C)C(=O)NC(Cc2cc(O)cc(F)c2)C(=O)N2CCCC(N2)C(=O)OC(C(C)=CC=CC(=O)N2CCCCO2)CC=CC=CC(O)C(C)C1O (stereo not drawn)", "tested on": "Hepatitis C virus", "assay": "viral replication", "test system": "Huh7, Con1 replicon", "conditions": "40% human serum", "quantity": "EC50", "value": "13 ± 2 nM"}
{"SMILES": "CC[C@H](C)[C@@H]1NC(=O)[C@H](CO)NC(=O)[C@H](CCCCN)NC(=O)[C@@H]2CSSC[C@@H](C(=O)N[C@@H](Cc3ccc(O)cc3)C(N)=O)NC(=O)[C@H](CCCCN)NC(=O)[C@@H]3CSSC[C@H](NC(=O)[C@H](CCCNC(=N)N)NC(=O)[C@H](CC(C)C)NC(=O)[C@H](CC(=O)O)NC(=O)[C@H](CC(=O)O)NC(=O)[C@H](CCC(=O)O)NC(=O)[C@H](CC(N)=O)NC(=O)[C@H](Cc4c[nH]c5ccccc45)NC(=O)C(C)(CC)NC(=O)CNC(=O)[C@H](CC(N)=O)NC(=O)[C@@H](NC(=O)CNC(=O)[C@H](Cc4ccccc4)NC(=O)CN)CSSC[C@H](NC(=O)[C@H](Cc4ccc(O)cc4)NC(=O)CNC(=O)CNC(=O)[C@H](CCCCN)NC(=O)[C@H](Cc4ccc(O)cc4)NC(=O)[C@H]4CCCN4C(=O)[C@@H]4CCCN4C1=O)C(=O)N[C@@H](C)C(=O)N[C@@H](CCCCN)C(=O)N1CCC[C@@H]1C(=O)NCC(=O)N[C@@H](Cc1ccccc1)C(=O)N[C@@H](C(C)C)C(=O)N3)C(=O)N[C@@H](Cc1c[nH]cn1)C(=O)N[C@@H](CC(N)=O)C(=O)N[C@@H](Cc1c[nH]cn1)C(=O)N2 (stereo partly drawn)", "tested on": "Streptococcus pneumoniae", "test system": "BS-442", "conditions": "24 h", "quantity": "MBC", "value": "1 µM"}
{"SMILES": "CN(C)c1nc(NCc2ccc(F)c(C(F)(F)F)c2)c(/N=N/c2ccc(Cl)cc2)c(N(C)C)n1", "tested on": "Ostrinia furnacalis", "assay": "leaf dipping", "conditions": "50 mg/L, 96 h", "quantity": "mortality", "value": "46.7 ± 5.8%"}
{"SMILES": "[O-][N+]1=C(c2ccc(Cl)cc2)C2=NCCCN2c2ccccc21", "tested on": "Clostridioides difficile", "assay": "microbial growth", "quantity": "MIC50", "value": "8 µg/mL"}
{"SMILES": "CC(C)[C@H]1NC(=O)[C@H](Cc2ccccc2)NC(=O)[C@@H](C(C)C)NC(=O)[C@@H](Cc2c[nH]c3ccccc23)NC(=O)[C@H](CO)NC(=O)[C@@H](Cc2c(-c3ccc(-c4ccc5ccccc5c4)cc3)[nH]c3ccccc23)NC(=O)[C@@H](CO)NC1=O", "tested on": "Mycobacterium marinum", "quantity": "MIC90", "value": "50 µM"}
{"note": "For quick reference, copied from above:"}
{"SMILES": "O=C1NC2(CC2)COc2ncc(F)cc2[C@H]2COCCN2c2ccn3ncc1c3n2", "test system": "Sprague-Dawley rat, male, testes", "conditions": "oral, 5 mg/kg/day, 4 weeks, end of treatment", "quantity": "organ-to-body weight ratio", "value": "0.757 ± 0.061%"}
